Results of several laboratories.
Every numbered part comes from another study and shows a few of its results, in no order.
UniProt Q6DT37, sequence (whole entry, looked up): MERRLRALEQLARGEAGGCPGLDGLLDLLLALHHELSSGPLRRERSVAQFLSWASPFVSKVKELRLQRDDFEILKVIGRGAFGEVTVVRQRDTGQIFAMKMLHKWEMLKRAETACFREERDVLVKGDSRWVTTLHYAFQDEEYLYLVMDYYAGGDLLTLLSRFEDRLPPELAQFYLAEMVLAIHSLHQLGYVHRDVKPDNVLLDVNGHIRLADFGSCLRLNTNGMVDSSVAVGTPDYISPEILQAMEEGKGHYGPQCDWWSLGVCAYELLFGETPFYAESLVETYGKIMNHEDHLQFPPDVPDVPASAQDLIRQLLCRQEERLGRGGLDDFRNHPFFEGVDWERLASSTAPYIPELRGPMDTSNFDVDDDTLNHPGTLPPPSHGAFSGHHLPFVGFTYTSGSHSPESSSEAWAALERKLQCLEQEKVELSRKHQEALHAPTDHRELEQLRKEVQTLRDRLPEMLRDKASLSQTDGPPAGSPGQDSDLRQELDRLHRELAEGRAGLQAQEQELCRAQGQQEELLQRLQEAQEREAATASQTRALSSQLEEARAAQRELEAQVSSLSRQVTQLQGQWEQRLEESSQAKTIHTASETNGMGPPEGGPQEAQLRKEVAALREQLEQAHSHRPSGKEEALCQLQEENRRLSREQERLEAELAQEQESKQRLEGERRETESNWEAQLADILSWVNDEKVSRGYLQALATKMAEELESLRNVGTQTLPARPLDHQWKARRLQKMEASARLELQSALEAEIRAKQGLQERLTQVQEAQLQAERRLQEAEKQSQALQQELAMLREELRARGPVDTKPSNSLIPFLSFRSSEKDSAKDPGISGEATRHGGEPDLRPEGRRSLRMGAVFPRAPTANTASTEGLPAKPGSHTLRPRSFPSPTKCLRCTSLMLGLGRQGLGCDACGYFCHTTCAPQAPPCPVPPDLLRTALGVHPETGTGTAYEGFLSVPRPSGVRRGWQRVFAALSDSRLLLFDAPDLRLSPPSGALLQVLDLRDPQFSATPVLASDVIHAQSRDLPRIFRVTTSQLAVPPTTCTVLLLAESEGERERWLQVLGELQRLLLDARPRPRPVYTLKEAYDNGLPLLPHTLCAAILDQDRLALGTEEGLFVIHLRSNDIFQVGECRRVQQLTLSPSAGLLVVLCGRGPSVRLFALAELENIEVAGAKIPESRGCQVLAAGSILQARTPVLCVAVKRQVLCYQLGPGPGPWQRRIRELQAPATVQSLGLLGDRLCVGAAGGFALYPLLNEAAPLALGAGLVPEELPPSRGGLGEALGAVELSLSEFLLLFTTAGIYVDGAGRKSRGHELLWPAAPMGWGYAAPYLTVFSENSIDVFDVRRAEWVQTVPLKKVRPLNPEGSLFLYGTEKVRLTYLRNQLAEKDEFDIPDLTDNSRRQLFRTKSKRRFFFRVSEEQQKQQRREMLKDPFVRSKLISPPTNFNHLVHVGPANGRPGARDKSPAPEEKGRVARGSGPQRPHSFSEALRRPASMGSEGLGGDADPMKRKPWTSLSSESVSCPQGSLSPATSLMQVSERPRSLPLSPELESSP
UniProt P36897, sequence (whole entry, looked up): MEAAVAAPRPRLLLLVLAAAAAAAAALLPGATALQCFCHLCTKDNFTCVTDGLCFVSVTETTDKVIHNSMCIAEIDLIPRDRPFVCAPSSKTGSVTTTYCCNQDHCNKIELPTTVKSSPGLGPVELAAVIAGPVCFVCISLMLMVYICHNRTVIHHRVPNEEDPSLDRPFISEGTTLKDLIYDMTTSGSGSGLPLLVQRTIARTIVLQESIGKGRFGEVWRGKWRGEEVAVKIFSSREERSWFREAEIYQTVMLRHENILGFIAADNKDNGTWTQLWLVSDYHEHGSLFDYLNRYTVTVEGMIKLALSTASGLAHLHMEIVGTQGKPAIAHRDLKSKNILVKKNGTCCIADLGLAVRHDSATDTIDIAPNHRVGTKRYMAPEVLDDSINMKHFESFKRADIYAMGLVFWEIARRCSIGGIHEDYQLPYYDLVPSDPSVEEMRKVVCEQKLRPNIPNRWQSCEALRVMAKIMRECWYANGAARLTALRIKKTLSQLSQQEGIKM
UniProt O15075, sequence (whole entry, looked up): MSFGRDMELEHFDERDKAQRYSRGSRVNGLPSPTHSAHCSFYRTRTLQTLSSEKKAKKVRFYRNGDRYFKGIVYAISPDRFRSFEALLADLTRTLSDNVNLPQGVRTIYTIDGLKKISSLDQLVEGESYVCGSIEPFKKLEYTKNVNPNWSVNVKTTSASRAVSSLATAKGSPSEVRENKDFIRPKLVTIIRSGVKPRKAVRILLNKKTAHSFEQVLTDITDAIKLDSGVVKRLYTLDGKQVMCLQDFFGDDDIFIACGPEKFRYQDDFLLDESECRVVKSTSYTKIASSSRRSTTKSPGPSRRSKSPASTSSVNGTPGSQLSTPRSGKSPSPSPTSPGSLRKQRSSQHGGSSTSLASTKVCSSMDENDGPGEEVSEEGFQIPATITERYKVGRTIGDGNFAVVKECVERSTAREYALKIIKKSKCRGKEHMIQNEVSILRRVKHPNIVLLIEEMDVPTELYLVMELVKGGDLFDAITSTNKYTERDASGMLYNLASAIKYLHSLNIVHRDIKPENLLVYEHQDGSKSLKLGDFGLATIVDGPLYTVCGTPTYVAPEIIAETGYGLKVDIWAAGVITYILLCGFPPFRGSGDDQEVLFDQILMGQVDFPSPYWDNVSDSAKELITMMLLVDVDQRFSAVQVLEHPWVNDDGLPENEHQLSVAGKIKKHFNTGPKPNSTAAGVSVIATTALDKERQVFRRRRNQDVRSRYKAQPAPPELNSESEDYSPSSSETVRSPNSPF
UniProt Q32MK0, sequence (whole entry, looked up): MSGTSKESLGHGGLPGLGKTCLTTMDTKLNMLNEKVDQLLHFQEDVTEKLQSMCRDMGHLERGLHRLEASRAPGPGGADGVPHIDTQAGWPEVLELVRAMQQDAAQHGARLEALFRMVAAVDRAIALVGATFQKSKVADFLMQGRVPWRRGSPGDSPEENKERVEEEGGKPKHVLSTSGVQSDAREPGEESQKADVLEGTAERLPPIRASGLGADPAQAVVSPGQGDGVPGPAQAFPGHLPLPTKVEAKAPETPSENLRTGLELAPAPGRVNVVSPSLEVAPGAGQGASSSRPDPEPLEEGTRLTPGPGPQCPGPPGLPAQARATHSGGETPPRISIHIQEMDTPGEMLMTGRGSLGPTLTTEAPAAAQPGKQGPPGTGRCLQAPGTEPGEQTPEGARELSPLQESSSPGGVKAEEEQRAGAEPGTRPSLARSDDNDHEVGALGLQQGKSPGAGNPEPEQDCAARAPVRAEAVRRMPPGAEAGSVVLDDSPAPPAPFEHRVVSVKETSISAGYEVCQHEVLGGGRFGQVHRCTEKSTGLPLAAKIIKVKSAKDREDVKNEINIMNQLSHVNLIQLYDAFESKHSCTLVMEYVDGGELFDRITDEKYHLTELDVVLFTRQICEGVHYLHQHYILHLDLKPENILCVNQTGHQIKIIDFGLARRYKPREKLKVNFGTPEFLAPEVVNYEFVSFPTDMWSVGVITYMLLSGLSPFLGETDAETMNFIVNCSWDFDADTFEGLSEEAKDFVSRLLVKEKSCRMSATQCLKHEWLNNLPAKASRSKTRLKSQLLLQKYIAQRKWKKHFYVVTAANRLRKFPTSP
UniProt Q96NX5, sequence (whole entry, looked up): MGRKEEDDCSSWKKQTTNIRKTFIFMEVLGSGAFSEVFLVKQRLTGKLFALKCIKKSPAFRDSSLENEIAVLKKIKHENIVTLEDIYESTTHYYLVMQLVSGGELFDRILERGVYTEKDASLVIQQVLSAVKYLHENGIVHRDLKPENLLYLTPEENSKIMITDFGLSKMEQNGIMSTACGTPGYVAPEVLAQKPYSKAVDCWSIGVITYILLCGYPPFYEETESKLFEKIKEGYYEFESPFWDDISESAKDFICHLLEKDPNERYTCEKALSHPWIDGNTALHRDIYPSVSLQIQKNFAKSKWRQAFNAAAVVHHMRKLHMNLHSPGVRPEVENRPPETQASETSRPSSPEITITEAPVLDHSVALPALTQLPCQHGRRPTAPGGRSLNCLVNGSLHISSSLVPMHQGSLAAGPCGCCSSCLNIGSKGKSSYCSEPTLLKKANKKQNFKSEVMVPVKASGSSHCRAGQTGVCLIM
UniProt Q8TBX8, sequence (whole entry, looked up): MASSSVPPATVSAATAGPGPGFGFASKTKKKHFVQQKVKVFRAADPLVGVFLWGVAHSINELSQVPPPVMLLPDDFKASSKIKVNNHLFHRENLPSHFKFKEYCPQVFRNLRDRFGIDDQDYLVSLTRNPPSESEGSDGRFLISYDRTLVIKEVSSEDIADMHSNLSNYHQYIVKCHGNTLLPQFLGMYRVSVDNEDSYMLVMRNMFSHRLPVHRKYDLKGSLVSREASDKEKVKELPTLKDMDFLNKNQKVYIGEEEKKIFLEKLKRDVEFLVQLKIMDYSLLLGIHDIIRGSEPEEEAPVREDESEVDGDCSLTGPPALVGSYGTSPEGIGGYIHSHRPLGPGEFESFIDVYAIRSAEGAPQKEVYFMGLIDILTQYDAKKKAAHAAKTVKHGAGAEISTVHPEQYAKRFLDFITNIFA

Study 1
Cell line: mouse MPNST tumor cells
Technique: high-content immunofluorescence imaging
Refers to: nuclear SOX9
Tested at: 10 µM
Time: 12 h
Notes: mean of 2 replicates
Relative to: DMSO control
Reading: higher = more nuclear SOX9
| Structure (SMILES) | nuclear SOX9 intensity |
| --- | --- |
| O=C1S/C(=C\c2ccc(OCc3cccc(B(O)O)c3)cc2)C(=O)N1Cc1ccc(F)cc1 | 93.4 % of DMSO |
| CN1CCN(c2nc(-c3ccc(C(=O)NC4(C(=O)NCC#N)CCCCC4)cc3)cs2)CC1 | 105 % of DMSO |
| O=S(=O)(c1cccc2cnccc12)N1CCNCC1 | 103 % of DMSO |
| Nc1nc2c(ccc3ccccc32)s1 | 93.8 % of DMSO |
| CO[C@H]1/C=C/O[C@@]2(C)Oc3c(C)c(O)c4c(O)c(c(/C=N/N5CCN(C)CC5)c(O)c4c3C2=O)NC(=O)/C(C)=C\C=C\[C@H](C)[C@H](O)[C@@H](C)[C@@H](O)[C@@H](C)[C@H](OC(C)=O)[C@@H]1C | 89.9 % of DMSO |
| CNC(=O)c1c(I)c(C(=O)NCC(=O)Nc2c(I)c(C(=O)O)c(I)c(C(=O)NCCO)c2I)c(I)c(N(C)C(C)=O)c1I | 93.1 % of DMSO |
| C=CC(N)CCC(=O)O (centres unmarked) | 93.3 % of DMSO |
| CN1c2cc3c(cc2N=C(c2ccc(C(=O)O)cc2)c2ccccc21)C(C)(C)CCC3(C)C | 132 % of DMSO |
| O=C1O[C@H]([C@@H](O)CO)C(O)=C1O | 96 % of DMSO |
| NCCNS(=O)(=O)c1ccc(Cl)c2ccncc12 | 111 % of DMSO |
| CC(C)Oc1ncc(-c2nc(-c3cccc4c3ccn4CCCC(=O)O)no2)cc1Cl | 97.7 % of DMSO |
| CC(=O)Oc1ccccc1C(=O)Oc1ccccc1C(=O)O | 106 % of DMSO |
| Cc1cc(C)nc(NS(=O)(=O)c2ccc(N)cc2)n1 | 99.9 % of DMSO |

Study 2
SMILES: O=C(Nc1cccnn1)N1CC(C/C=C/c2cncc(Oc3ccc(C(F)(F)F)cn3)n2)C1
Tested at: 1 µM
| target | observed | technique | remaining binding [%] |
| --- | --- | --- | --- |
| Ribosomal protein S6 kinase alpha-6, N-terminal kinase domain (RPS6KA6, Homo sapiens, UniProt Q9UK32) | cell-free assay | competition with immobilised ligand | 80 |
| CAMK1G (Homo sapiens, UniProt Q96NX5) | cell-free assay | competition with immobilised ligand | 100 |
| TGFBR1 (Homo sapiens, UniProt P36897) | cell-free assay | competition with immobilised ligand | 100 |
| COQ8A (Homo sapiens, UniProt Q8NI60) | cell-free assay | competition with immobilised ligand | 96 |
| HIPK4 (Homo sapiens, UniProt Q8NE63) | cell-free assay | competition with immobilised ligand | 92 |
| MYLK3 (Homo sapiens, UniProt Q32MK0) | cell-free assay | competition with immobilised ligand | 85 |
| CDC42BPG (Homo sapiens, UniProt Q6DT37) |  | competition binding | 100 |
| PIP4K2C (Homo sapiens, UniProt Q8TBX8) | cell-free assay | competition with immobilised ligand | 100 |
| PIK3C2G (Homo sapiens, UniProt O75747) | cell-free assay | competition with immobilised ligand | 100 |
| DCLK1 (Homo sapiens, UniProt O15075) | cell-free assay | competition with immobilised ligand | 84 |
| TRPM6 (Homo sapiens, UniProt Q9BX84) | cell-free assay | competition with immobilised ligand | 73 |
| EIF2AK1 (Homo sapiens, UniProt Q9BQI3) | cell-free assay | competition with immobilised ligand | 100 |
| ALK (Homo sapiens, UniProt Q9UM73, L1196M) | cell-free assay | competition with immobilised ligand | 82 |

Study 3
Target: Tyrosine-protein kinase CSK (CSK, Homo sapiens, UniProt P41240)
UniProt P41240, sequence (whole entry, looked up): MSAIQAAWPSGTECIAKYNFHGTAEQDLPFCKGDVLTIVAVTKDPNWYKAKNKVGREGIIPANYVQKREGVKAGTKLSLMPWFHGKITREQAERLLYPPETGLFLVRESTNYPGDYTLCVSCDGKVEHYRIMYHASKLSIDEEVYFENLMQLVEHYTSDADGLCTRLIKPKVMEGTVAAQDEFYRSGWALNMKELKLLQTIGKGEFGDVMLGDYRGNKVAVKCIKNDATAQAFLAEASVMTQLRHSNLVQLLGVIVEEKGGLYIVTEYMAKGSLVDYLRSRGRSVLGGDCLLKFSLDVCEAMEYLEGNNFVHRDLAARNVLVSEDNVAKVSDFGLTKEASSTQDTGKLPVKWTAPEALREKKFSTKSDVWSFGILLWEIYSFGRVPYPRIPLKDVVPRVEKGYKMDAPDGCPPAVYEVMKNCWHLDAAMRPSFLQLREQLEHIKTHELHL
Observed: enzyme activity
Mode: inhibitor
Tested at: 0.5 µM
Relative to: control
| SMILES | remaining activity |
| --- | --- |
| CC(C)(C)c1nc2c3cc[nH]c(=O)c3c3cc(F)ccc3c2[nH]1 | 114% |
| c1cc(-c2cnn3cc(-c4ccc(OCCN5CCCCC5)cc4)cnc23)ccn1 | 59.1% |
| NC(=O)c1ccc(-c2nc(-c3ccc4c(c3)OCCO4)c(-c3ccccn3)[nH]2)cc1 | 104% |
| CCCCc1c(-c2ccc(O)cc2)[nH]c2nccnc12 | 78.2% |
| O=C(O)/C=C/c1cc(Br)c(Br)c(Br)c1Br | 103% |
| N#C/C(=C(/N)SC1C=CC=CC1)c1cccc(C(O)c2ccncc2)c1 (centres unmarked) | 90.2% |
| CC(C)n1cnc2c(Nc3cccc(Cl)c3)nc(NCCO)nc21 | 98.2% |
| COc1cc2c(N3CCN(C(=O)Nc4ccc(OC(C)C)cc4)CC3)ncnc2cc1OCCCN1CCCCC1 | 99.3% |
| C[C@@H](N)[C@H]1CC[C@H](C(=O)Nc2ccncc2)CC1 | 101% |
| FC(F)(F)c1ccc(/C=C/c2nc(COc3ccc(CCCCn4ccnn4)cc3)co2)cc1 | 106% |
| NC(=O)c1cccc(-c2cc(Nc3ccc(OC(F)(F)F)cc3)ncn2)c1 | 104% |
| COc1cc2c(Nc3ccc(Br)cc3F)ncnc2cc1OCC1CCN(C)CC1 | 54.4% |
| O=C1c2ccccc2-c2nc3nnnn3nc21 | 84.8% |
| N#CC(c1ccnc(NCCc2cccnc2)n1)c1nc2ccccc2s1 (centres unmarked) | 93.4% |
| Clc1ccc(Nc2nnc(Cc3ccncc3)c3ccccc23)cc1 | 87.6% |
| O=C1NC(=O)/C(=C/c2ccc3c(c2)OC(F)(F)O3)S1 | 88% |
| CC(C)N(CCC(=O)c1ccc2ccccc2c1)Cc1ccccc1 | 88.5% |
| O=C(c1ccccc1)c1ccc(N2CCOCC2)cc1O | 101% |
| CNc1cc2c(Nc3cccc(Br)c3)ncnc2cn1 | 82% |
| CCN(CC)CCCCN1c2ccccc2Oc2ccc(Cl)cc21 | 99.1% |
| O=c1c(-c2ccc(F)cc2)c(-c2ccncc2)[nH]n1-c1ccc(Cl)cc1 | 86.1% |
| O=Nc1c(-c2c(O)[nH]c3ccccc23)[nH]c2ccccc12 | 93% |
| Nc1nc(Nc2ccc(S(N)(=O)=O)cc2)nn1C(=S)Nc1c(F)cccc1F | 76.8% |

Study 4
Cell line: HaCaT
Tested at: 100 µM
Time: 36 h
| Compound | viability |
| --- | --- |
| COc1cccc2c1C(=O)c1c(O)c3c(c(O)c1C2=O)C[C@@](O)(C(=O)CO)C[C@@H]3O[C@H]1C[C@H](N)[C@H](O)[C@H](C)O1 | 26.4% |
| CCCCC(=O)O[C@H]1CC[C@H]2[C@@H]3CCc4cc(O)ccc4[C@H]3CC[C@]12C | 4.63% |
| Cc1cccc(Nc2ccncc2S(=O)(=O)NC(=O)NC(C)C)c1 | 97.4% |
| C[C@@H]1O[C@@H](O[C@H]2[C@H](Oc3cc(O)c4c(c3)O[C@H](c3ccc(O)cc3)CC4=O)O[C@H](CO)[C@@H](O)[C@@H]2O)[C@H](O)[C@H](O)[C@H]1O | 87.8% |
| COc1cccc2c1C(=O)c1c(O)c3c(c(O)c1C2=O)C[C@@](O)(C(C)=O)C[C@@H]3O[C@H]1C[C@H](N)[C@H](O)[C@H](C)O1 | 23.7% |
| CC(C)(Sc1cc(C(C)(C)C)c(O)c(C(C)(C)C)c1)Sc1cc(C(C)(C)C)c(O)c(C(C)(C)C)c1 | 76.8% |
| COc1cc2c(cc1OC)[C@H]1CC(=O)[C@H](CC(C)C)CN1CC2 (racemic) | 73.7% |
| CCOc1cc(N)c(Cl)cc1C(=O)NCC1CN(Cc2ccc(F)cc2)CCO1 (centres unmarked) | 86.4% |
| CC(=O)O[C@]1(C(C)=O)CC[C@H]2[C@@H]3CCC4=CC(=O)CCC4=C3[C@@H](c3ccc(N(C)C)cc3)C[C@@]21C | 67.4% |
| Nc1ccn([C@@H]2CS[C@H](CO)O2)c(=O)n1 | 95.1% |
| CCCCC(=O)N(Cc1ccc(-c2ccccc2-c2nnn[nH]2)cc1)[C@H](C(=O)O)C(C)C | 94.6% |
| CC1(C)O[C@@H]2C[C@H]3[C@@H]4C[C@H](F)C5=CC(=O)C=C[C@]5(C)[C@H]4[C@@H](O)C[C@]3(C)[C@]2(C(=O)CO)O1 | 72.2% |
| C[C@H]1[C@H](C)CC[C@]2(C(=O)O)CC[C@]3(C)C(=CC[C@@H]4[C@@]5(C)C[C@@H](O)[C@H](O)[C@@](C)(CO)[C@@H]5CC[C@]43C)[C@H]12 | 5.74% |

A few entries again (study 2):
| target | observed | technique | remaining binding [%] |
| --- | --- | --- | --- |
| Ribosomal protein S6 kinase alpha-6, N-terminal kinase domain (RPS6KA6, Homo sapiens, UniProt Q9UK32) | cell-free assay | competition with immobilised ligand | 80 |
| DCLK1 (Homo sapiens, UniProt O15075) | cell-free assay | competition with immobilised ligand | 84 |
| CDC42BPG (Homo sapiens, UniProt Q6DT37) |  | competition binding | 100 |
| EIF2AK1 (Homo sapiens, UniProt Q9BQI3) | cell-free assay | competition with immobilised ligand | 100 |
| PIK3C2G (Homo sapiens, UniProt O75747) | cell-free assay | competition with immobilised ligand | 100 |
| CAMK1G (Homo sapiens, UniProt Q96NX5) | cell-free assay | competition with immobilised ligand | 100 |
| PIP4K2C (Homo sapiens, UniProt Q8TBX8) | cell-free assay | competition with immobilised ligand | 100 |
| HIPK4 (Homo sapiens, UniProt Q8NE63) | cell-free assay | competition with immobilised ligand | 92 |
| COQ8A (Homo sapiens, UniProt Q8NI60) | cell-free assay | competition with immobilised ligand | 96 |
| TRPM6 (Homo sapiens, UniProt Q9BX84) | cell-free assay | competition with immobilised ligand | 73 |
